Results from different studies.
Every numbered part comes from another study and shows a few of its results, in no order. Substitutions count along the parent as printed.

Study 1
Target: ABI1, truncated, D143A, DHFR fusion (Arabidopsis thaliana)
Technique: DHFR PCA, deep sequencing
Matrix: yeast
Notes: methotrexate growth selection, single substitutions
With: (+)-ABA 0.39 µM
Baseline: wild-type fitted maximum
Direction: higher = stronger binding
Starting sequence: PYL1, truncated, DHFR fusion (Arabidopsis thaliana); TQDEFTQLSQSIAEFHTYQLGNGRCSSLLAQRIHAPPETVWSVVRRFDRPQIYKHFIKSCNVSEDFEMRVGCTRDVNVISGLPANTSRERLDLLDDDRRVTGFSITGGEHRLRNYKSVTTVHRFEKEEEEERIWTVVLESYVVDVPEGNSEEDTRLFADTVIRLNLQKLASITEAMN
Variant | relative binding score [%]
K116D | -11.6
L112F | 15.5
P146W | -1.34
L156E | -0.0821
Q19T | 47.4
E131R | 59.2
S117P | 12.8
P83H | 8.05
Q10F | -0.204
N85L | 67.7
L91D | -5.84
S9P | 4.05
E67Y | 7.89
L169N | 15.5
E125I | 46.5
A170G | 2.45
I162H | -0.356
D65F | 6.19
Q10M | 25.6
D97T | 49.7
D153G | 0.261

Study 2
Target: human cyclin A2
Observed: peptide binding
Technique: competitive growth sequencing
Form: peptide
Organism: Saccharomyces cerevisiae
Strain: cyclin A2-Cln2 fusion strain
Concentration: concentration not given
Notes: peptide tiling library
Baseline: unfused Cln2 strain
Direction: direction not given
Sequence | binding score
IVLICAKRSLCAAFSV | 0.526
SNFFDVIKQLFSDEKN | 0.471
IFNKPECGRVQRAIFQ | 0.676
SSEVARHLLFQSHM | -0.155
SCCKRKLVVGNGPEGP | 0.425
PARRRLRLSVDEVSSP | 2.06
AIRKMREDRWAVIAKM | 1.46
MNQELLSVGSKRRRTG | 0.285
TARRIFQEPTEPKTKA | 1.11
YRSRIRAEAFIEEIQA | -0.453
FREFEVEKQTAEETGL | 0.941
DSDSDSEGGAAGGEAD | 1.08
NARRSLNFGGSTGT | 3.29
IPDRSTKPVVFSPT | -0.326
VLLKRLQDVVSERANH | 0.112
HPESPPRKRLKSKGSD | 1.65
KPITLDTTDFQESFVT | -0.0297
EPRNLLSLFEDTLDPT | 2.14
SVKQLGPPFEHASNND | 1.82
KRCATPVIIDEILPSK | -0.114
ALTMEALEDPSPELME | 0.946

Study 3
Target: RNA binding protein fox-1 homolog 2, RRM domain, GST-SBP tag (RBFOX2, Homo sapiens, UniProt O43251-10, residues 100-194)
Technique: RNA Bind-n-Seq
Form: RNA
Matrix: in vitro
Concentration: 365 nM
Notes: natural RNA segment, single round, ends assumed
Baseline: no-protein control
Direction: higher = stronger binding
All sequences stand within: GGGAGUUCUACAGUCCGACGAUC … UGGAAUUCUCGGGUGCCAA
Residues (chain): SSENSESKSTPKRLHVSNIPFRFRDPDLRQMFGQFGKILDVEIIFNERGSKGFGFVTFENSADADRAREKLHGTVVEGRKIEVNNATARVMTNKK
Strand | RBNS enrichment (R)
CCUGUGACGCCUGAGGCCUCCAGCAUAGCACCGUGGGGCCAGGGAGCCCGAAUGGCCCCAGCAUCAGUGCCAAGGCUGAGCUGACGACUCUCCAGUGUUGUCCAAGGAAA | 0.572
AGACCAUGCCCACUGGAUAGAUGGGCAGAGAACCAGCACCUAAAGAACACCUACUGUGUGCCAGGCACUUUACAUCCCCCCCUCAGUGUCUACCUAGUCUGCUGGGCUGA | 0.493
AGAUGCCCCGGGACUGAGGCCGCCCUGCACCUUCAGCGGAUUUGGGGAUUAGGCUCUUUUAGGUAACUGGCUUUCCUGCUGGUCCGUGCGGGAAAUUCAGUCUUGAUUUA | 1.25
UCUAAUGACGGAUAAUUCCUUAACAUUUCUCUCCACCUUAGUACUUUAGGCUAAUUAUACACGUCUGUCUGUGCCAUGAGUAAGUGGACUGUAGUUGGACCAAAAAAACA | 0.516
AGCUAAGAGAAAUCAGGGCAUGGAAAUUGAGUGUGUAAUAAAAAUUAAACUCUUCAUGUUAUAUAAUCAUGCAUAACUUCUAUCUUCAUUCUCUGAAGUUGCCUAGAGCA | 0.433
UUCCCUUGACUGGAUCCCAAGUAGCUUGGAAGUUUUUGUGCCCAGGAGAGUAAAUAACUGUGAACAAGAGGCUCUGCCCUUAGGUCUUUGUGGCUGUUUAAGUCACCAAC | 0.36
UUGUCCAGGGUGAAGCUGUGGGAGAACCGCCUGGGCUACCAGUCAGAGCUGGUCUUUGGGCUGUGUUCCUUGCCCAGGUUUCUGCAUCUUGCACUUUGACAUUCCCAGGA | 0.623
UGUGAUUUUUAACACAUAUAUUUCUUCCAUAUUCAGAUUGGCAUUCAUAUAUGUAUCCAUUCUGUAGAACACAUCAUGUUAAUAUAGUAUACAUUUAAAAAAAUACUACU | 0.339

Study 4
Target: Ras GTPase-activating protein-binding protein 1, full length (G3BP1, Homo sapiens, UniProt Q13283)
Chain of UniProt Q13283 (whole entry, looked up): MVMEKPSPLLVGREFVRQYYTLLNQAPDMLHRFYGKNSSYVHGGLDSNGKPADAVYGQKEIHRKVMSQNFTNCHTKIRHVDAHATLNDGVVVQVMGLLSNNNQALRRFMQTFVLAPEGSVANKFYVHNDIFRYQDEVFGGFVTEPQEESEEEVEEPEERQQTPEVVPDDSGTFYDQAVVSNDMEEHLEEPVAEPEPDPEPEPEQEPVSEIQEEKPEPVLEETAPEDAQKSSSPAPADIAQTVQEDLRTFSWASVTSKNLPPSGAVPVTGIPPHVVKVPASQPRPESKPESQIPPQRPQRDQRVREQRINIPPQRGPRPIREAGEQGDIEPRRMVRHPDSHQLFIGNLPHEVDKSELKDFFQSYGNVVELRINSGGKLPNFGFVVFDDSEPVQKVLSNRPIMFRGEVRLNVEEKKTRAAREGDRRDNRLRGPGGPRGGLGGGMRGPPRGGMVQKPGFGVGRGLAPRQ
Technique: RNA Bind-n-Seq
Form: RNA
Matrix: in vitro
Concentration: 200 nM
Notes: whole 134-nt RNA, ends assumed
With: 150 mM LiCl
Baseline: input library
Direction: higher = stronger binding
All molecules: 7-deaza-guanosine replaces G
All sequences stand within: GGGAGUUCUACAGUCCGACGAUC … UGGAAUUCUCGGGUGUCAAGG
Strand | log2 enrichment
AAGUCCUGUGCUACACAUCGUAUGUACCGAAUCGGGAAAAAGGGAGGGUUUUUGGGAAAGUAUUAUGUUACGCCGUUCGGAUCUGCACUU | -1.01
UUUUACAUUUAUACACAUGUAUUGGCUUCCUUUUACACUAUUAGGCGGUCAAGAAGCAGAUCGAGACGGCGGUCACAUUCUAAGUCUAGG | -0.703
GCAGGAAGUAAAAACAAAUGGAAAUGCUUCGGAUAGUGGCAGGGGUGGGGGUUGCUAAGGAAAGGGUGGGACGGGAGUGGGUAAAGAGUU | 0.02
GGCAGUAGCAGCAGCGCCGGGUCCCGUGCGGAGGUGCUCCUCGCAGAGUUGUUUCUCGAGCAGCGGCAGUUCUCACUACAGCGCCAGGAC | -0.881
UUAGGCACUUGUUGGGCUCAUCACCGUUGUGUGGAGUGGUCACUAGGAGUAUGCCAGAUGGAAGAACCAUUGUUAGUGAACGUGGACAAA | -0.397
UCAAGUCCUGUGCUACACAUCGUAUGUACCGAAUCGGGGAGGGGUGGGGUGGGGAAAGUAUUAUGUUACGCCGUUCGGAUCUGCACUUCC | -0.0988
ACCAUGCAGGUGGGCAUAAAUGGGAAGUGGGGCAAGGGGGGGAUAGGGAGGGGGGUAACACUUUGGGAACAGGUGGUCCCAGGUCGUUUC | 0.166
UGCCCUCCGUGGAGUCUUUGUUUCGAAGUCCGAUAAAGGAAUCUCUAUUCCGGUCUUCUUCUAAAGAGUCUUUGGUACGAACAUCUUCCA | -0.0988

Study 5
Target: Histone acetyltransferase KAT6A, winged helix 1, GST fusion (KAT6A, Homo sapiens, UniProt Q92794, residues 1-85)
Technique: protein binding microarray
Form: double-stranded DNA, one strand shown
Matrix: in vitro
Concentration: not given
Notes: 8-mer, flanks averaged, mean of 2 arrays, mostly near background
Baseline: not given
Direction: higher = stronger binding
Construct (chain): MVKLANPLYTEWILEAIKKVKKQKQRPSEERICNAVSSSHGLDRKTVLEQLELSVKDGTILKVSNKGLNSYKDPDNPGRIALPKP
Strand | E-score
CAGTGGGG | -0.304
AGAGAGTC | -0.178
CCATGAGC | -0.103
ATAAAGAC | -0.175
ACTAGGAG | -0.141
CGAGGTCC | 0.0468
TAGTAGAA | -0.097
CTTTGGAA | -0.0993
CACAGAGC | -0.0959
CTATTAAA | -0.149
CCTGTAGA | -0.13
CAGCAAAC | -0.151
TAACCCCA | -0.183
CACTACTA | -0.0611
GGATTCGA | -0.0849
CTGGCGTC | 0.00856
CATTTTGG | -0.108

Some of these lines once more (study 4):
Strand | log2 enrichment
AAGUCCUGUGCUACACAUCGUAUGUACCGAAUCGGGAAAAAGGGAGGGUUUUUGGGAAAGUAUUAUGUUACGCCGUUCGGAUCUGCACUU | -1.01
UUUUACAUUUAUACACAUGUAUUGGCUUCCUUUUACACUAUUAGGCGGUCAAGAAGCAGAUCGAGACGGCGGUCACAUUCUAAGUCUAGG | -0.703
GCAGGAAGUAAAAACAAAUGGAAAUGCUUCGGAUAGUGGCAGGGGUGGGGGUUGCUAAGGAAAGGGUGGGACGGGAGUGGGUAAAGAGUU | 0.02
GGCAGUAGCAGCAGCGCCGGGUCCCGUGCGGAGGUGCUCCUCGCAGAGUUGUUUCUCGAGCAGCGGCAGUUCUCACUACAGCGCCAGGAC | -0.881
UUAGGCACUUGUUGGGCUCAUCACCGUUGUGUGGAGUGGUCACUAGGAGUAUGCCAGAUGGAAGAACCAUUGUUAGUGAACGUGGACAAA | -0.397
UCAAGUCCUGUGCUACACAUCGUAUGUACCGAAUCGGGGAGGGGUGGGGUGGGGAAAGUAUUAUGUUACGCCGUUCGGAUCUGCACUUCC | -0.0988
ACCAUGCAGGUGGGCAUAAAUGGGAAGUGGGGCAAGGGGGGGAUAGGGAGGGGGGUAACACUUUGGGAACAGGUGGUCCCAGGUCGUUUC | 0.166
UGCCCUCCGUGGAGUCUUUGUUUCGAAGUCCGAUAAAGGAAUCUCUAUUCCGGUCUUCUUCUAAAGAGUCUUUGGUACGAACAUCUUCCA | -0.0988
